Assay results from different studies.
Protocols differ between the studies behind these lines. ± gives the spread as reported.

CC(C)=CCC/C(C)=C/CC/C(C)=C/CC[C@@](C)(O)CCC1=C(C)C(=O)C(C)=C(C)C1=O  half-life (healthy human, plasma; oral, 400 mg, together with: itraconazole 200 mg): 12.2 h
O=C(O)CCC(=O)O.[2H]C([2H])([2H])Oc1cc(C)c2[nH]ccc2c1CN1CC[C@@H](C2CC2)C[C@H]1c1ccc(C(=O)O)cc1  half-life (LC-MS/MS, mean; human, plasma; 50 mg, single dose, fasting): 21.1 h
Cc1cc(C)c(CNC(=O)c2cc(Cl)c3c(c2C)O[C@@](C)([C@H]2CC[C@H](N(C)C)CC2)O3)c(=O)[nH]1  half-life (mean; healthy male humans, plasma; oral, 25 mg, day 12, together with: fluconazole): 19.2 h
CCN(CC)CCNC(=O)c1c(C)[nH]c(/C=C2\C(=O)Nc3ccc(F)cc32)c1C  half-life (human patients, plasma; oral, cycle 1 day 1): 55.9 h
C[C@H](Oc1ccc(Br)cc1-c1ccon1)C(=O)O  half-life (LC-MS/MS, non-compartmental; human, plasma; 200 mg once daily, day 1, multiple ascending dose, mean): 5.34 h
C[C@@H]1CCO[C@H]2Cn3cc(C(=O)NCc4ccc(F)cc4F)c(=O)c(O)c3C(=O)N12  half-life (human, haemodialysis patients, plasma; oral, fixed-dose combination): 9.5 h
Cc1ccc(C)c(OCCCC(C)(C)C(=O)O)c1  half-life (human, plasma; oral, dose not given, after lopinavir/ritonavir, geometric mean, together with: lopinavir/ritonavir): 4.4 h
N#CCNC(=O)c1ccc(-c2ccnc(Nc3ccc(N4CCOCC4)cc3)n2)cc1  half-life (healthy human volunteers, plasma; oral, 100 mg once daily, day 7, fed, given alone): 5.47 h
CC(C)NC(=O)COc1cccc(-c2nc(Nc3ccc4[nH]ncc4c3)c3ccccc3n2)c1  half-life (human male, plasma; oral, 200 mg, day 6, fed, alone, geometric mean): 5 h
CC(=O)N1CCC(Nc2cc(C(=O)NC[C@H](O)CN3CCc4ccccc4C3)ncn2)CC1  half-life (human, plasma; oral, 300 mg, week 3 day 1, geometric mean): 6.84 h
COc1ccc([C@@H](O)c2cc(-c3ncnc4cc(N5CCOCC5)ccc34)c(F)cc2Cl)nn1  half-life (human, plasma; oral, 100 mg twice daily, single dose, geometric mean): 2.37 h
Cc1nc(-c2ccc(OCC(C)C)c(C#N)c2)sc1C(=O)O  half-life (human, plasma; oral, 10 mg once daily, together with: verinurad 2.5 mg): 7.22 h
Cc1ccc([C@@H]2O[C@H](CO)[C@@H](O)[C@H](O)[C@H]2O)cc1Cc1ccc(-c2ccc(F)cc2)s1  half-life (human, maintenance hemodialysis patients; oral, 100 mg once daily, steady state, median): 10.8 h
COc1cc([C@@H]2Oc3cc([C@H]4Oc5cc(O)cc(O)c5C(=O)[C@@H]4O)ccc3O[C@H]2CO)ccc1O  half-life (OATP1B1/1B3 humanized mice, plasma; oral gavage, 500 mg/kg silymarin): 0.47 h
CC1=C(c2cccc(O)c2)[C@H](c2ccc(OCCN3CC(CF)C3)cc2)Oc2ccc(O)cc21  half-life (human, plasma; oral, 1400 mg single dose): 18 h
COC(=O)N[C@@H](C)CNc1nccc(-c2cn(C(C)C)nc2-c2cc(Cl)cc(NS(C)(=O)=O)c2F)n1  half-life (human patients, plasma; oral, 450 mg twice daily, day 1, single dose, median, together with: binimetinib 45 mg once daily): 3.9 h
CO[C@H]1C[C@@H]2CC[C@@H](C)[C@@](O)(O2)C(=O)C(=O)N2CCCC[C@H]2C(=O)O[C@H]([C@H](C)C[C@@H]2CC[C@@H](OC(=O)NCCOCCOCCOCCOCCOCCOCCOCCOCCC(=O)N3CCc4cc(Cn5nc(-c6ccc7oc(N)nc7c6)c6c(N)ncnc65)ccc4C3)[C@H](OC)C2)C[C@@H](O)[C@H](C)/C=C(\C)[C@@H](O)[C@@H](OC)C(=O)[C@H](C)C[C@H](C)/C=C/C=C/C=C/1C  half-life (human patients, plasma; intravenous, 16 mg, cycle 1 day 15): 7.9 h
CN1CCC(COc2cnc(-c3cccc(Cn4nc(-c5cccc(C#N)c5)ccc4=O)c3)nc2)CC1  half-life (human; 500 mg, alone, geometric mean): 31 h
O=C(COc1ccc(Cl)cc1)NC12CC(c3nnc([C@H]4C[C@@H](OC(F)(F)F)C4)o3)(C1)C2  half-life (healthy human volunteers fasted, plasma; oral, 400 mg single dose, geometric mean): 35 h
C#C[C@]1(CO)O[C@@H](n2cnc3c(N)nc(F)nc32)C[C@@H]1O  half-life (human, plasma; oral, 400 mg, single dose, geometric mean): 48.5 h
CC(C)[C@H](N)C(=O)NCCCS(=O)(=O)O  half-life (human, plasma; oral, 256.5 mg once daily, day 1, fed, capsule): 1.07 h
C[C@H](O)c1cc(C(=O)N[C@@H](C)Cn2ccc(-c3ccc(C#N)c(Cl)c3)n2)n[nH]1  half-life (human, fasted; oral, 300 mg 14C-darolutamide solution, geometric mean): 10.7 h
Cc1cc(OCCOCCC(F)(F)P(=O)(O)O)ccc1CCc1cnc2c(N)nc3cc(CCC(=O)O)ccc3c2c1  half-life (human, serum; intratumoral, 200 µg every 2 weeks, cycle 2 day 15): 9.32 h
C[C@@H](Oc1ccc(S(C)(=O)=O)cc1C(=O)N1C[C@@H]2C[C@]2(c2cc(C(F)(F)F)on2)C1)C(F)(F)F  half-life (LC-MS/MS; young human subjects, plasma; oral, 10 mg once daily, steady state, multiple doses): 45.2 h
CCNCc1cc(Nc2ccnc3cc(Cl)ccc23)ccc1O  half-life (human, both sexes, plasma; oral, dose not given, fixed-dose combination): 169 h
CO[C@@H]1[C@H](OC(=O)N2CC(CCN3CCOCC3)C2)CC[C@]2(CO2)[C@H]1[C@@]1(C)O[C@@H]1CC=C(C)C  half-life (humans, plasma; subcutaneous, 1.8 mg twice weekly, first dose): 0.83 ± 0.26 h
O=C(O)c1cc(/N=N/c2ccc(S(=O)(=O)Nc3ccccn3)cc2)ccc1O  half-life (LC-MS; human, plasma; oral, 1000 mg, day 1): 11.1 h
CN(C)N=Nc1[nH]cnc1C(N)=O  half-life (human patients, plasma; intravenous, 1000 mg/m^2 over 1 h, cycle 1 day 1, given alone): 2.55 h
CCCCOc1nc(N)c2c(n1)N(Cc1cccc(CN3CCCC3)c1)CC(=O)N2  half-life (human; oral, 2 mg, mean): 18 h
Cc1noc(C)c1-c1cc(C(O)(c2ccccn2)c2ccccn2)c2nc(C3CC3)[nH]c2c1  half-life (human patients, plasma; oral, 6 mg, cycle 1 day 8, monotherapy): 17.8 h
C=CC(=O)N(C)CCOc1c(N)ncnc1-c1cc(F)cc(NC(=O)c2ccc(C3CC3)cc2F)c1C  half-life (human, whole blood; oral, 400 mg, single ascending dose, median): 11.4 h
NC(=O)c1[nH]cnc1N  half-life (human patients, plasma; IV infusion over 1 h, 1000 mg/m^2 DTIC, cycle 1 day 1, DTIC alone): 2.89 h
COc1ccccc1OCC(O)CN1CCN(CC(=O)Nc2c(C)cccc2C)CC1 (centres unmarked)  half-life (human; oral, 12 mg/kg/day): ~2 h
N#Cc1cc(NC(=O)[C@H]2c3ccccc3C(=O)N(CC(F)(F)F)[C@@H]2c2cccnc2)ccc1F  half-life (human, plasma; oral, 600 mg, fed, median, interim): 18.7 h
CC(=O)O[C@H]1C(=O)[C@@]2(C)[C@H]([C@H](OC(=O)c3ccccc3)[C@]3(O)C[C@H](OC(=O)[C@H](O)[C@@H](NC(=O)c4ccccc4)c4ccccc4)C(C)=C1C3(C)C)[C@]1(OC(C)=O)CO[C@@H]1C[C@@H]2O  half-life (noncompartmental analysis; human cancer patients, plasma; intravenous infusion, 80 mg/m^2, cycle 1 day 1, together with: daily oral co-medication): 7.81 h
Cn1cncc1[C@@](N)(c1ccc(Cl)cc1)c1ccc2c(c1)c(-c1cccc(Cl)c1)cc(=O)n2C  half-life (non-compartmental analysis; human, plasma; oral, 300 mg/m^2, median, initial cohort, first cycle dose): 4.07 h
CC(C)n1c(Nc2cccnc2)nc2cnc(Nc3ccc(N4CCN(C)CC4)cc3)nc21  half-life (LC-MS/MS; human, male, plasma; oral, 100 mg, day 11, together with: itraconazole 200 mg): 43.6 h
CC1(COc2ccc3c(c2)ncn3-c2ccc3cccc(N4CCC(N)CC4)c3n2)COC1  half-life (human patients, recurrent/progressive HGG or DIPG, serum; oral, 220 mg/m^2, day 28, median): 6.65 h
NC[C@@]1(CC(=O)O)[C@@H]2CC[C@H]3C[C@@H]2[C@@H]1C3  half-life (human, normal renal function, plasma; oral, 20 mg single dose, geometric mean): 3.52 h
COc1ncc(-c2nc3c(n2C(C)C)[C@H](c2ccc(Cl)cc2)N(c2cc(Cl)cn(C)c2=O)C3=O)c(OC)n1  half-life (human, plasma; oral, 150 mg, C2D1, high-dose, median): 13.4 h
CC[C@H](C)CCCCC(=O)N[C@@H](CCN)C(=O)N[C@H](C(=O)N[C@@H](CCN)C(=O)N[C@H]1CCNC(=O)[C@H]([C@@H](C)O)NC(=O)[C@H](CCN)NC(=O)[C@H](CCN)NC(=O)[C@H](CC(C)C)NC(=O)[C@@H](Cc2ccccc2)NC(=O)[C@H](CCN)NC1=O)[C@@H](C)O  half-life (human, mild renal insufficiency, plasma; intravenous, 0.75 mg/kg, single 1-h infusion,, arithmetic mean): 7.39 h
CCCCCCCOc1ccc(CCC(N)(CO)CO)cc1C(F)(F)F.Cl  half-life (healthy human males, plasma; oral, 0.75 mg, day 21): 423 h
COc1cc(Nc2ncc3c(n2)-c2ccc(Cl)cc2C(c2c(F)cccc2OC)=NC3)ccc1C(=O)O  half-life (human patients, plasma; oral, 40 mg twice daily, day 7, together with: pembrolizumab): 7.72 h
CN(C(=O)C(C)(C)c1cc(C(F)(F)F)cc(C(F)(F)F)c1)c1cnc(N2C[C@H]3COCCN3C[C@H]2CO)cc1-c1ccc(F)cc1[14CH3]  half-life (LC-MS/MS; human, male, plasma; oral, 120 mg): 37.1 h
NC(CO)(CO)CCc1ccc(Sc2cccc(OCc3ccccc3)c2)cc1Cl  half-life (human male, whole blood; oral, 3 mg, together with: cyclosporin 100 mg b.i.d.): 126 h
CC(C)(Sc1ccncc1-c1ccc(C#N)c2ccccc12)C(=O)O  half-life (human, plasma; oral, 5 mg once daily, together with: febuxostat 20 mg): 13.2 h
C#C[C@]1(COP(=O)(O)O)O[C@@H](n2cnc3c(N)nc(F)nc32)C[C@@H]1O  half-life (refers to: islatravir triphosphate; human, PBMC; oral, 400 mg single dose): 127 h

For quick reference, copied from above:
CC[C@H](C)CCCCC(=O)N[C@@H](CCN)C(=O)N[C@H](C(=O)N[C@@H](CCN)C(=O)N[C@H]1CCNC(=O)[C@H]([C@@H](C)O)NC(=O)[C@H](CCN)NC(=O)[C@H](CCN)NC(=O)[C@H](CC(C)C)NC(=O)[C@@H](Cc2ccccc2)NC(=O)[C@H](CCN)NC1=O)[C@@H](C)O  half-life (human, mild renal insufficiency, plasma; intravenous, 0.75 mg/kg, single 1-h infusion,, arithmetic mean): 7.39 h
CCCCCCCOc1ccc(CCC(N)(CO)CO)cc1C(F)(F)F.Cl  half-life (healthy human males, plasma; oral, 0.75 mg, day 21): 423 h
COc1cc(Nc2ncc3c(n2)-c2ccc(Cl)cc2C(c2c(F)cccc2OC)=NC3)ccc1C(=O)O  half-life (human patients, plasma; oral, 40 mg twice daily, day 7, together with: pembrolizumab): 7.72 h
CN(C(=O)C(C)(C)c1cc(C(F)(F)F)cc(C(F)(F)F)c1)c1cnc(N2C[C@H]3COCCN3C[C@H]2CO)cc1-c1ccc(F)cc1[14CH3]  half-life (LC-MS/MS; human, male, plasma; oral, 120 mg): 37.1 h
NC(CO)(CO)CCc1ccc(Sc2cccc(OCc3ccccc3)c2)cc1Cl  half-life (human male, whole blood; oral, 3 mg, together with: cyclosporin 100 mg b.i.d.): 126 h
